Results collected from several papers.
Every numbered part comes from another study and shows a few of its results, in no order. Changes are numbered by the printed parent chain.
Sequence of UniProt P51817 (whole entry, looked up): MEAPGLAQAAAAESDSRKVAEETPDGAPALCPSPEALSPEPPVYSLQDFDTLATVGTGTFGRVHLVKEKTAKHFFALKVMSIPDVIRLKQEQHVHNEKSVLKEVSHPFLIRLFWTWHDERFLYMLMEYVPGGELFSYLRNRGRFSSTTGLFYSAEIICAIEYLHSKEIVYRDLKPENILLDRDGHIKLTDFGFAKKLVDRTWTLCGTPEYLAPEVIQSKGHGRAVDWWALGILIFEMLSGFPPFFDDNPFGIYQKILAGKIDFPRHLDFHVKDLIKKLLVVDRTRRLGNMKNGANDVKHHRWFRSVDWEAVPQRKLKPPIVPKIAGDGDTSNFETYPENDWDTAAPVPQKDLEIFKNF

Series 1
Target: RING finger protein unkempt homolog, zinc fingers 1-6, GST-SBP tag (UNK, Homo sapiens, UniProt Q9C0B0, residues 30-357)
Sequence of UniProt Q9C0B0 (30-357, looked up): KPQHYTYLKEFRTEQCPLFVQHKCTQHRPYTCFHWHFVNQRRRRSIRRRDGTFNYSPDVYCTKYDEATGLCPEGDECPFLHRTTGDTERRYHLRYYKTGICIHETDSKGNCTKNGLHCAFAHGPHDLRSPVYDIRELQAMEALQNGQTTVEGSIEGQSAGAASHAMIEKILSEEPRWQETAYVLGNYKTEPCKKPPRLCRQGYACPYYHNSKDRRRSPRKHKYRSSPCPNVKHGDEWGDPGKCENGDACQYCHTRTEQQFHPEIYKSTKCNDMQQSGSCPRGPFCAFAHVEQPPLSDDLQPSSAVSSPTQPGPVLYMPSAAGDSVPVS
Technique: RNA Bind-n-Seq
Molecule type: RNA
Matrix: in vitro
Concentration: not given
Setting: RNA with constant flanks, human and mouse sites, ends assumed
Reference: input RNA pool
Reading: higher = stronger binding
Endpoint: bound/input enrichment
Constant ends, left off below: GGGAGUUCUACAGUCCGACGAUC … CAACAGAGGAUUGAGCAUCA
ACUCCUAUUAGCAAUGAAGUGGAAAUGGAAUCUGAGGAACAGAUUGCAGAAAGGAAAAGGAAGAUGACAAGAGAAGAAAGAAAAAUGGAAGCAAUUUUGCAGGCUUUUGCCAGACUUGAG: 1.17 ratio
GUUUUUGCUUGUUUUGGUUUUGGUUGUUUGCAGAUUGUUGGCAUAUAUCACCAUUCUUGAUCUUAUUGAGAUGUGUAUUGCUAGCUCCUAUUGGUUUGAUAAUUUUCCUAUAGUUACUGG: 0.48 ratio
UUCUCAGCAUGGGGAAAUAACAGUUCUCAGGGACAGUCUACUCAGAGCUCUGGAUAUAGUAGCAAUUAUGCUUAUGCACCUAGCUCCUUAGGUGGAGCCAUGAUUGAUGGACAGUCAGCU: 1.2 ratio
AAGGAAGCACGAAAGCGCCGGGAGGAGCGCCUCCAGGCCAAGAAGGAAGAGAUCAUCAAGACUCUGUCCAAGGAGGAGGAGACCAAGAAAUAAAGCUUCCCUCGUGUCUGUACAUAGCGG: 0.27 ratio
UGUAGCCUUUAUUAAACAGAUCAUGUAUUCUGAUCUCUUGCUGCAGCCACAGUGCAGCUCCAUGUAAACCUACAGGCCAAACCAUUUGUAUCCGGCAUCACUUACUAACACACAACAUGU: 0.311 ratio
CUUCUCUCCUUGCCCCCCGCCCUCAUGGGUCCUAGCCCUUCCCUGAGUGCGGGCUGAGGCCAGAGUCACCUUUUCUGUGGCUGGCUCUACCUUCCUGUCCCUGAGGUUAAACGGUGCCCA: 0.159 ratio
UUAAACUAAAUGGAACCAUGUGCUAAUUUUACAGUGACUGACCUGUACUGAUUACCACUGUAGUUUGGUAUUUCCCUUUACUUUGGUGGCCUGCUUCCCUCAUGCCCUGGAGUACAGCUC: 0.138 ratio
UGGUUCUCCUCCAACUGAGAAAGCUUACAGUACAAUUUAAAGUGGGUCUCGCCUGCACUUACUAGUGUCUGACGAAACAGUCUUACAUCUGCCUAAGUAAUAGAAGAGCCCUGCAGAAUA: 0.185 ratio

Series 2
Target: Probable WRKY transcription factor 33, N-terminal DNA-binding domain (WRKY33, Arabidopsis thaliana, UniProt Q8S8P5, residues 169-264)
Technique: DNA-protein interaction ELISA
Molecule type: double-stranded DNA, one strand shown
Matrix: in vitro, bacterial lysate
Concentration: not given
Setting: whole dsDNA probe, crude lysate protein
Reference: highest signal in screen
Reading: higher = stronger binding
Endpoint: relative absorbance
Construct (chain): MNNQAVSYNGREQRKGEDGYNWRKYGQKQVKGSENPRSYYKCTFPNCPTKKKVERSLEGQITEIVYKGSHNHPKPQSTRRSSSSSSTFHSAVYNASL
AAAAAAGTGTTTGTGCTTCTCTCTGTAAAA: 18.4 % of maximum
AAAAAAGCGCGCCCGCACTGTTAATAAAAA: 27.7 % of maximum
AAAAAAATCGTTGTTATCGTATTTATAAAA: 17.8 % of maximum
AAAAAATTTCTCCTTCTTTGTTCTTCAAAA: 28.6 % of maximum
AAAAAAGCGGTAGATGCGCAACTGTGAAAA: 19.4 % of maximum
AAAAAATAGGCGTTATGGCTAACACCAAAA: 21.2 % of maximum
AAAAAAGGACGTCTTCGGTATGAGTGAAAA: 24 % of maximum
AAAAAAGTAGGTGCTGATGCTGGCCGAAAA: 20.8 % of maximum

Series 3
Target: CREM, bZIP domain (human)
Technique: DHFR protein complementation
Matrix: yeast
Setting: single substitutions, most at no-binding floor
Reference: wild-type JUN-FOS pair
Reading: higher = stronger binding
Endpoint: binding fitness
Parent: JUN, bZIP domain (human); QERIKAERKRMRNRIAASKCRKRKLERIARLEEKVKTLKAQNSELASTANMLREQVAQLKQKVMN; partner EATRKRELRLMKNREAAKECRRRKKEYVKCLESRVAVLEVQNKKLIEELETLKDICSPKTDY
K34L: -1.42 natural log
K36I: -1.43 natural log
I28A: -1.49 natural log
L52D: -1.43 natural log
I28T: -1.54 natural log
L52G: -1.53 natural log
T37V: -1.39 natural log
A40W: -1.42 natural log

Other studies, line by line
CN([C@@H]1CCc2c(CC(=O)O)c3cc(S(C)(=O)=O)ccc3n2C1)S(=O)(=O)c1ccc(F)cc1
remaining binding (cAMP-dependent protein kinase catalytic subunit PRKX (PRKX, Homo sapiens, UniProt P51817); cell-free assay, competition with immobilised ligand; 1 µM): 100%

Repeated from above (series 1):
ACUCCUAUUAGCAAUGAAGUGGAAAUGGAAUCUGAGGAACAGAUUGCAGAAAGGAAAAGGAAGAUGACAAGAGAAGAAAGAAAAAUGGAAGCAAUUUUGCAGGCUUUUGCCAGACUUGAG: 1.17 ratio
GUUUUUGCUUGUUUUGGUUUUGGUUGUUUGCAGAUUGUUGGCAUAUAUCACCAUUCUUGAUCUUAUUGAGAUGUGUAUUGCUAGCUCCUAUUGGUUUGAUAAUUUUCCUAUAGUUACUGG: 0.48 ratio
